Experimental data collected from several papers.
Protocols differ between the studies behind these lines. ± gives the spread as reported.
rep papain-like protease: Replicase polyprotein 1ab, papain-like protease (rep, Severe acute respiratory syndrome coronavirus 2, UniProt P0DTD1)
rep main protease: Replicase polyprotein 1ab, main protease (rep, Severe acute respiratory syndrome coronavirus 2, UniProt P0DTD1)

SMILES | target or system | assay | system | setting | quantity | value
Cc1ccc(OCCN(C)C)cc1C(=O)N[C@H](C)c1cc(-c2cnn(C)c2)cc(-c2cnn(C3CC3)c2)c1 | rep papain-like protease | enzyme activity, inhibitor, FRET | – | – | Ki | 0.0332 µM
O=S(=O)(O)c1cccc2cccc(Nc3ccccc3)c12 | rep main protease | enzyme activity, inhibitor | – | – | Ki | 188 µM
COc1ccc(-c2cc(=O)c3c(O)c(Oc4ccc(-c5cc(=O)c6c(O)cc(O)cc6o5)cc4)c(OC)cc3o2)cc1 | rep papain-like protease | enzyme activity, inhibitor | – | – | Ki | 14.3 µM
Cc1ccc(OCCN(C)C)cc1C(=O)N[C@H](C)c1cc(-c2cnn(C)c2)cc(-c2cnn(C(F)F)c2)c1 | rep papain-like protease | enzyme activity, inhibitor, FRET | – | – | Ki | 0.0336 µM
CC(=O)Nc1ccc(-c2cnc(N3C(=O)CSC3c3cc4ccccc4nc3Cl)s2)cc1 (centres unmarked) | rep papain-like protease | papain-like protease activity, inhibitor | SARS-CoV-2 | 15 min, 37 °C, with: substrate 40 µM | Ki | 8.75 ± 0.87 µM
COc1ccc(-c2cc(=O)c3c(O)cc(O)c(-c4cc(-c5cc(=O)c6c(O)cc(OC)cc6o5)ccc4OC)c3o2)cc1 | rep main protease | enzyme inactivation, inactivator, inactivation kinetics | – | 37 °C | Ki | 7.59 µM
C=C1CCC2C(C)(CO)C(O)CCC2(C)C1CC(SC(=S)N1CCN(Cc2cc(F)c(F)cc2F)CC1)C1=CCOC1=O (centres unmarked) | rep main protease | enzyme activity, inhibitor, fluorescence | – | – | Ki | ~48.3 µM
O=C(Oc1cncc(Cl)c1)c1cccs1 | rep main protease | enzyme activity, inhibitor | – | – | Ki | 1.8 µM
C=C1CC[C@@H]2[C@](C)(COC(C)=O)[C@H](OC(C)=O)CC[C@@]2(C)[C@@H]1C[C@H](SC(=S)N1CCN(C(c2ccc(F)cc2)c2ccc(F)cc2)CC1)C1=CCOC1=O | rep main protease | enzyme activity, inhibitor, fluorescence | – | – | Ki | 8.3 µM
Cc1ccc(OCCN(C)C)cc1C(=O)N[C@H](C)c1cc(-c2cnn(C)c2)cc(-c2cnn(C(C)C)c2)c1 | rep papain-like protease | enzyme activity, inhibitor, FRET | – | – | Ki | 0.0476 µM
C=C1CC[C@@H]2[C@](C)(COC(C)=O)[C@H](OC(C)=O)CC[C@@]2(C)[C@@H]1C[C@H](SC(=S)N1CCN(C(c2ccccc2)c2ccc(Cl)cc2)CC1)C1=CCOC1=O (some centres unmarked) | rep main protease | enzyme activity, inhibitor, fluorescence | – | – | Ki | 6.8 µM
CCCCCCCCCCCCCCCC(=O)N[C@@H](CCC(=O)NCCOCCOCCC(=O)NCCOCCOCCC(=O)NCCCC[C@H](NC(=O)[C@H](CC(=O)O)NC(=O)[C@H](CC(C)C)NC(=O)[C@H](Cc1ccc(O)cc1)NC(=O)[C@H](CCCCN)NC(=O)[C@H](CO)NC(=O)[C@H](Cc1ccc(O)cc1)NC(=O)[C@H](CC(=O)O)NC(=O)[C@H](CO)NC(=O)[C@@H](NC(=O)[C@H](Cc1ccccc1)NC(=O)[C@@H](NC(=O)CNC(=O)[C@H](CCC(N)=O)NC(=O)[C@@H](CO)NC(=O)[C@@H](N)Cc1c[nH]cn1)[C@@H](C)O)[C@@H](C)O)C(=O)N[C@@H](CCCNC(=N)N)C(=O)N[C@@H](CCCNC(=N)N)C(=O)N[C@@H](C)C(=O)N[C@@H](CCC(N)=O)C(=O)N[C@@H](CC(=O)O)C(=O)N[C@@H](Cc1ccccc1)C(=O)N[C@H](C(=O)N[C@@H](CCC(N)=O)C(=O)N[C@@H](Cc1c[nH]c2ccccc12)C(=O)N[C@@H](CC(C)C)C(=O)N[C@@H](CC(C)C)C(=O)N[C@@H](CC(N)=O)C(=O)N[C@H](C(=O)NCC(=O)NCC(=O)N1CCC[C@H]1C(=O)N[C@@H](CO)C(=O)N[C@@H](CO)C(=O)NCC(=O)N[C@@H](C)C(=O)N1CCC[C@H]1C(=O)N1CCC[C@H]1C(=O)N1CCC[C@H]1C(=O)N[C@@H](CO)C(N)=O)[C@@H](C)O)C(C)C)C(=O)O | – | – | rhesus monkey, male, plasma | subcutaneous, 300 µg/kg, day 1, toxicokinetics, mean | Cmax | 602 ng/mL
COc1ccc(-c2cc(=O)c3c(O)cc(O)c(-c4cc(-c5cc(=O)c6c(O)cc(OC)cc6o5)ccc4OC)c3o2)cc1 | rep papain-like protease | enzyme activity, inhibitor | – | – | Ki | 23.6 µM
Cc1ccc(C(=O)NCc2ccc(C)c(C(=O)N[C@H](C)c3cccc4ccccc34)c2)cc1Br | rep papain-like protease | inhibitor | – | – | Ki | 7.4 to 7.8 µM

For quick reference, copied from above:
SMILES | target or system | assay | system | setting | quantity | value
CC(=O)Nc1ccc(-c2cnc(N3C(=O)CSC3c3cc4ccccc4nc3Cl)s2)cc1 (centres unmarked) | rep papain-like protease | papain-like protease activity, inhibitor | SARS-CoV-2 | 15 min, 37 °C, with: substrate 40 µM | Ki | 8.75 ± 0.87 µM
COc1ccc(-c2cc(=O)c3c(O)cc(O)c(-c4cc(-c5cc(=O)c6c(O)cc(OC)cc6o5)ccc4OC)c3o2)cc1 | rep main protease | enzyme inactivation, inactivator, inactivation kinetics | – | 37 °C | Ki | 7.59 µM
